Assay results gathered from unrelated publications.
Compare with care: the assays were run in different laboratories.

Cn1cc(-c2ccc(-c3cncc(Cl)c3N3CCC4(CCNC4=O)CC3)cc2)cn1
log2 fold change (COLO 205; gene expression, microarray, item: LY9 mRNA; concentration not given, 6 h; reference: untreated cells): -1.17

Clc1ccc(COc2cncc(-c3cnn(C4CCNCC4)c3)c2)c(Cl)c1
EC50 (BV-2; phagocytosis, high-content imaging; geometric mean, added: pHrodo-myelin uptake): 1.94 µM

CCn1cc(-c2cc(Cn3ccnc3)cc3c2CCN([C@H](c2cc(OC)ccn2)C2CC2)C3=O)c(C(F)(F)F)n1
EC50 (HEC59; cell growth; 120 h): 1.21 µM

CC(ONC(=O)c1cc(C(F)(F)F)cc(C(F)(F)F)c1)C(=O)Nc1ccc(Cl)cc1 (stereo not drawn)
EC50 (PH5CH8; steatosis inhibition, high-content imaging; 72 h, added: sodium oleate 1 mM): 5.21 µM

Cc1ncc([N+](=O)[O-])n1CCO
EC50 (Escherichia coli expressing YdgI_Bs nitroreductase; growth inhibition, substrate, OD600; 4 h): 88.6 µM

C[C@]12CCCN1CC1=NNC(=O)c3cc(F)cc4[nH]c2c1c34
EC50 (SW480 colorectal cancer cells; cell viability; concentration not given, added: with temozolomide): > 3 µM

CCn1cc(-c2cc(Cn3ccoc3=N)cc3c2CCN([C@@H](C)c2cc(OC)ccn2)C3=O)c(C(F)(F)F)n1
EC50 (HEC-1-A; cell growth, inhibitor; 120 h): > 30 µM

CC(=O)C1=C(C)Nc2sc(C(=O)c3ccc(Cl)c(Cl)c3)c(N)c2C1c1cccnc1 (stereo not drawn)
EC50 (BV-2; phagocytosis, high-content imaging; geometric mean, added: pHrodo-myelin uptake): 33 µM

CN(C)C/C=C/C(=O)Nc1ccc(C(=O)Nc2cccc(Nc3ncc(Cl)c(-c4c[nH]c5ccccc45)n3)c2)cc1
EC50 (PH5CH8; steatosis inhibition, high-content imaging; 72 h, added: sodium oleate 1 mM): 0.969 µM

O=C(Cc1ccccc1)Nc1nnc(CCSCCc2nnc(NC(=O)Cc3ccccc3)s2)s1
EC50 (BT-474; cell proliferation, inhibitor, cell counting; 144 h): ~20 µM

COc1cnc2cccc(N3CCc4c(cc(Cn5ccnc5C)cc4-c4cn(C)nc4C(F)(F)F)C3=O)c2c1
EC50 (SU-DHL10; cell growth, inhibitor; 120 h): 0.065 µM

CN(C)CCOc1ccc(-c2nc(-c3ccncc3)c(-c3ccc4c(c3)CC/C4=N\O)[nH]2)cc1
EC50 (451Lu-R3 BRAF inhibitor resistant; cell viability; 72 h, single agent): 5.97 µM

A few entries again:
C[C@]12CCCN1CC1=NNC(=O)c3cc(F)cc4[nH]c2c1c34
EC50 (SW480 colorectal cancer cells; cell viability; concentration not given, added: with temozolomide): > 3 µM

CCn1cc(-c2cc(Cn3ccoc3=N)cc3c2CCN([C@@H](C)c2cc(OC)ccn2)C3=O)c(C(F)(F)F)n1
EC50 (HEC-1-A; cell growth, inhibitor; 120 h): > 30 µM
